Assay results collected from several papers.
Numbered parts are unrelated; each lists some results of a single study. Several values in a cell are separate wells, animals, samples, runs or records.
Chain of UniProt Q9UK32 (whole entry, looked up): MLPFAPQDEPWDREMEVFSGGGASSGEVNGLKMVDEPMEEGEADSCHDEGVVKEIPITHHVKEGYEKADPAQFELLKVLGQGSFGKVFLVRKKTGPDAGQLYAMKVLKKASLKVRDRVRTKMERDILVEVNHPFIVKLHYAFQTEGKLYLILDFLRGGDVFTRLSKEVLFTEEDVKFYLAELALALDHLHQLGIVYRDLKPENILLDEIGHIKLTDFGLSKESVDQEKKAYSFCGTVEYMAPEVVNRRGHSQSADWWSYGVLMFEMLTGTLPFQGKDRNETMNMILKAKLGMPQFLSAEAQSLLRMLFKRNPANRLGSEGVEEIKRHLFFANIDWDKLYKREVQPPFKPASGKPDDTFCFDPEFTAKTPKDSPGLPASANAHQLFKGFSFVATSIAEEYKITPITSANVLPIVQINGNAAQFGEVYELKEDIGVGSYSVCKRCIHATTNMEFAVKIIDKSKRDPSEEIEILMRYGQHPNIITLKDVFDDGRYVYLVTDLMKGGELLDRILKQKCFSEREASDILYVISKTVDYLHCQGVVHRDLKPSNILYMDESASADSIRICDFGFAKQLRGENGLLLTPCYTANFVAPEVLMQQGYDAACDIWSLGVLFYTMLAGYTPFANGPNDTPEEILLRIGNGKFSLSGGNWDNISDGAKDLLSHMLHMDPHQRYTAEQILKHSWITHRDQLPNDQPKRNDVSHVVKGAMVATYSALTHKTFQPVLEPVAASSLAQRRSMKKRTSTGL
Chain of UniProt Q07002 (whole entry, looked up): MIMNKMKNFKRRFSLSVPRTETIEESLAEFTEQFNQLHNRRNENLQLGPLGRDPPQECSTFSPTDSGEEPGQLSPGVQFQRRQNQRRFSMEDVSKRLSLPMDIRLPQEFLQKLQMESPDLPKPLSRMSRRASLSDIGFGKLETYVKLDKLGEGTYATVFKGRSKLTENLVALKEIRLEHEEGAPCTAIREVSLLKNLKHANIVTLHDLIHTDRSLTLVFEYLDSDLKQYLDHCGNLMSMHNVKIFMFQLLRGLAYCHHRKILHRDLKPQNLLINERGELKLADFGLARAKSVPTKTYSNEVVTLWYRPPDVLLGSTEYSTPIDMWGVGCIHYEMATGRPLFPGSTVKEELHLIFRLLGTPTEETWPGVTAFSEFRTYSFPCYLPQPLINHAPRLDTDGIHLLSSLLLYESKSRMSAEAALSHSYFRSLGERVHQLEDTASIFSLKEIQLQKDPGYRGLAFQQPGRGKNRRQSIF
Chain of UniProt P23443 (whole entry, looked up): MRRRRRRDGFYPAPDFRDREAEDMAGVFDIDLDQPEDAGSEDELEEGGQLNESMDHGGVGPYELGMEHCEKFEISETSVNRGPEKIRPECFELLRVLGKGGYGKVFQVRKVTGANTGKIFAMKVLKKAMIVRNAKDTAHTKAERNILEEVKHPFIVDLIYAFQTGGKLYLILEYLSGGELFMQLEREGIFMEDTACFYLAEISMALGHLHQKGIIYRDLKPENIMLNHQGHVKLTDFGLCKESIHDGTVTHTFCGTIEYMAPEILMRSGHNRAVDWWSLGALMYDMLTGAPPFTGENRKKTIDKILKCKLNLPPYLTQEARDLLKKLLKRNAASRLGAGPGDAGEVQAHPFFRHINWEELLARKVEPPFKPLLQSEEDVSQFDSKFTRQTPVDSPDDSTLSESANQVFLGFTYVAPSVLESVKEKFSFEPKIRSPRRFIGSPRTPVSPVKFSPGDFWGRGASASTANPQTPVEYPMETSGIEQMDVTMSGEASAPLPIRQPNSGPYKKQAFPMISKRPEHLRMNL
Chain of UniProt Q32MK0 (whole entry, looked up): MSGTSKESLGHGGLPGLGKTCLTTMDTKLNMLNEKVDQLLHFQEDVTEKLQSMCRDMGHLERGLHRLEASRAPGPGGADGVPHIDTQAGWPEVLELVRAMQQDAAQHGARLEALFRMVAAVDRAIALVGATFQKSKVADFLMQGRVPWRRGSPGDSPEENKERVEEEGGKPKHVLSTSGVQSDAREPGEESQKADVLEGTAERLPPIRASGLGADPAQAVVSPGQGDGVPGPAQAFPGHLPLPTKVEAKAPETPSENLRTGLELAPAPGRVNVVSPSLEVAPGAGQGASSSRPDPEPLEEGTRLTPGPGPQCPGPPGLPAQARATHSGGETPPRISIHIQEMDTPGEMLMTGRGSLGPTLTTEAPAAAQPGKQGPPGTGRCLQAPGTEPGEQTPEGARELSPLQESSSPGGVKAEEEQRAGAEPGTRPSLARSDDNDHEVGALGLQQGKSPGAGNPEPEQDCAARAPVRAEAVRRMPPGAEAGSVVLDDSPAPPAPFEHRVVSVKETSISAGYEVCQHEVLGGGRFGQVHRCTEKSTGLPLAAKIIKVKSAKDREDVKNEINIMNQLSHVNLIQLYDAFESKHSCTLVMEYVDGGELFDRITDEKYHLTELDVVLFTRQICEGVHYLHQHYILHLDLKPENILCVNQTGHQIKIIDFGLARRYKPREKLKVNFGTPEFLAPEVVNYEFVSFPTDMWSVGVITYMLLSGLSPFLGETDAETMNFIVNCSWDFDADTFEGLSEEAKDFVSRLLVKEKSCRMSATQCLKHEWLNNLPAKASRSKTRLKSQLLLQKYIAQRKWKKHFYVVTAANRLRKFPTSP
Chain of UniProt Q9H2K8 (whole entry, looked up): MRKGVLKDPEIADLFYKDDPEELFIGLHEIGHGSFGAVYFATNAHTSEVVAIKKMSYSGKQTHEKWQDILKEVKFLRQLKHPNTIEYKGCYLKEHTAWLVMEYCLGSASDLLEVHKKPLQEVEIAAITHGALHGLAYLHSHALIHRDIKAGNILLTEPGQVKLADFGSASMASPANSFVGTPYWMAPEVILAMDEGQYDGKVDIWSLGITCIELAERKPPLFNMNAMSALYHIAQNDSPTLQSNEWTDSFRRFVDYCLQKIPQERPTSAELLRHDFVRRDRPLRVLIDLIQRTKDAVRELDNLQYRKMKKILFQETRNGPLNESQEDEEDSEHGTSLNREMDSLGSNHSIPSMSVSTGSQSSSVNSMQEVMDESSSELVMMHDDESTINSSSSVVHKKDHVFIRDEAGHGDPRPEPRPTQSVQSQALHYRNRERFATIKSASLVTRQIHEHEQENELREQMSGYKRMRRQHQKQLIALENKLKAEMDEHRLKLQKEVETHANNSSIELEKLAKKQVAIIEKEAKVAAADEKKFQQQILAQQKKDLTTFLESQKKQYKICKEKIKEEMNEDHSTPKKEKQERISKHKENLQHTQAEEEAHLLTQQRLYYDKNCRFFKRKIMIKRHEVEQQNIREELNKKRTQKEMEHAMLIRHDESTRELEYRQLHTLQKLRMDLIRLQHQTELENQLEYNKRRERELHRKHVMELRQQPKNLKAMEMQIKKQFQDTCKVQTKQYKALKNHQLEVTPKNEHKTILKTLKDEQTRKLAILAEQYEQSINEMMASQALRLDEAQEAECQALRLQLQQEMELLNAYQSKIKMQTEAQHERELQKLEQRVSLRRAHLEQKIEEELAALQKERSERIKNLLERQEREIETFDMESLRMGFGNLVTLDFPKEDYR
Chain of UniProt Q16832 (whole entry, looked up): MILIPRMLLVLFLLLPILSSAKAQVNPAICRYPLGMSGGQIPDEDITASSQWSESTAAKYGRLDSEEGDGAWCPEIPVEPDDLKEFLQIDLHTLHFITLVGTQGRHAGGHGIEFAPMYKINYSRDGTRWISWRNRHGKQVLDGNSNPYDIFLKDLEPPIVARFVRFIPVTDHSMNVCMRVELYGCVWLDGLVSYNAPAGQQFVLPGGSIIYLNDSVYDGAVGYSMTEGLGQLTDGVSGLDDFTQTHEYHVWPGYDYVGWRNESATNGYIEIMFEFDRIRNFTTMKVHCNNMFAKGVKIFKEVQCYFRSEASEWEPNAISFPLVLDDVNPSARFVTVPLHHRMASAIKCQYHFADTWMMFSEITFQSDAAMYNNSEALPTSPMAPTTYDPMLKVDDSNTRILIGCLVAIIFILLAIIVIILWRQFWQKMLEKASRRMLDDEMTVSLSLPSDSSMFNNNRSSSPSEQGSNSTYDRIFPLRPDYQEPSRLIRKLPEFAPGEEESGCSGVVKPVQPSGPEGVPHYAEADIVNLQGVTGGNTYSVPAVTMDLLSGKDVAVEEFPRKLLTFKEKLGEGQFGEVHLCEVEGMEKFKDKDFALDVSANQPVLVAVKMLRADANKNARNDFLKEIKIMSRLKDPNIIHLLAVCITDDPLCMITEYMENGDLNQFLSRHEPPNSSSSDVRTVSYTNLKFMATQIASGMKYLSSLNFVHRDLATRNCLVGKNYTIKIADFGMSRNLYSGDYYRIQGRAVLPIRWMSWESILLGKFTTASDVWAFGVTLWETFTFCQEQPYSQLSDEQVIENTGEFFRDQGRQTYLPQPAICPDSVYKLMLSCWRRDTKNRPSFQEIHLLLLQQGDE
Chain of UniProt Q9Y243 (whole entry, looked up): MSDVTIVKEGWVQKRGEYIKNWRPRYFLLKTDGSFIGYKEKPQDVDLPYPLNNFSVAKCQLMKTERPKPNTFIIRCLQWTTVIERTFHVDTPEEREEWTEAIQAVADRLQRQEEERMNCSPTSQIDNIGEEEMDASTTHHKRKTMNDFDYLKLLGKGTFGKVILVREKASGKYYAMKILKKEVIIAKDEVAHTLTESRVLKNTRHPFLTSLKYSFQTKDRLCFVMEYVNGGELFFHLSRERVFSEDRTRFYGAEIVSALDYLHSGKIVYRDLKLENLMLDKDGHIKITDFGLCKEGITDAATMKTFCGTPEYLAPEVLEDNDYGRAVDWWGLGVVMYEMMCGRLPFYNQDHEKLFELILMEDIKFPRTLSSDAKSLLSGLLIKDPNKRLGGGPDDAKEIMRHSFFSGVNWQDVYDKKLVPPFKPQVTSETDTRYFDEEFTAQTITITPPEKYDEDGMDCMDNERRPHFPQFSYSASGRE

Series 1
Organism: Plasmodium berghei
Mode: inhibitor
Cells: Huh-7
Strain: GFP-expressing sporozoites, liver stage
Concentration: 10 µM
Time: 24 h
Relative to: untreated control
SMILES	infection rate [%]
Cc1cc(C(C)(C)CC(C)(C)C)ccc1OCCOCC[N+](C)(C)Cc1ccccc1	7.17
CCOC(=O)C1=C(COCCN)NC(C)=C(C(=O)OC)C1c1ccccc1Cl (centres unmarked)	65.6
C[C@@](Cc1ccc(O)c(O)c1)(NN)C(=O)O	68.8
Cn1nnnc1SCC1=C(C(=O)O)N2C(=O)[C@@H](NC(=O)[C@H](OC=O)c3ccccc3)[C@H]2SC1	110
CC1(C)[C@@H]2CC[C@@]1(C)C(=O)C2	118
CN1CCC(OC(c2ccccc2)c2ccccc2)CC1	110

Series 2
Structure (SMILES): COc1cc(C(=O)N2CCC(N3CCN(C)CC3)CC2)ccc1Nc1ncc2c(n1)N(C)c1ccccc1C(=O)N2C
target	assay	test system	setting	inhibition
PI4KA (mouse)	probe labelling, KiNativ, measured: SGTPMQSAAkAPYLAK peptide, ATP site	brain tissue lysate (mouse)	0.1 µM, together with: ATP acyl-phosphate probe	2.3%
mouse ILK	probe labelling, KiNativ ADP probe	mouse brain lysate	1 µM, kinase domain ISMADVkFSFQCPGR	45.7%
CDK9 (mouse)	probe labelling, KiNativ, measured: DMkAANVLITR peptide, LYS2 site	brain tissue lysate (mouse)	0.1 µM, together with: ADP acyl-phosphate probe	21.9%
NEK9 (mouse)	probe labelling, KiNativ ADP probe	mouse brain lysate	1 µM, LYS1 labelled site	11.5%
TNIK (mouse)	probe labelling, inhibitor, KiNativ ActivX ATP probe	mouse brain lysate	0.1 µM, Lys1 site peptide	3.7% and 5%
SGK2 (mouse)	probe labelling, inhibitor, KiNativ ActivX ATP probe	mouse brain lysate	0.1 µM, Lys1 site peptide	0.6%
TLK1 and TLK2 human	KiNativ profiling	human PBMC	1 µM, LYS2 site, together with: ADP acyl phosphate probe	-4%
TRKB (mouse)	probe labelling, inhibitor, KiNativ ActivX ATP probe	mouse brain lysate	0.1 µM, Lys1 site peptide	-18.1%

Series 3
SMILES: CCC(=O)N[C@@H]1CC[C@H](C(=O)N(C)c2ccc(-c3nc4ccccc4o3)cc2)C1
Read-out: cell-free assay
Method: competition with immobilised ligand
Concentration: 1 µM
target	remaining binding
Ribosomal protein S6 kinase alpha-3, N-terminal kinase domain (RPS6KA3, Homo sapiens, UniProt P51812)	91%
Ribosomal protein S6 kinase beta-1 (RPS6KB1, Homo sapiens, UniProt P23443)	93%
Serine/threonine-protein kinase PLK4 (PLK4, Homo sapiens, UniProt O00444)	100%
Cyclin-dependent kinase 18 (CDK18, Homo sapiens, UniProt Q07002)	95%
RAC-gamma serine/threonine-protein kinase (AKT3, Homo sapiens, UniProt Q9Y243)	100%
SNF-related serine/threonine-protein kinase (SNRK, Homo sapiens, UniProt Q9NRH2)	100%
Myosin light chain kinase (MYLK3, Homo sapiens, UniProt Q32MK0)	100%
Receptor-type tyrosine-protein kinase FLT3 (FLT3, Homo sapiens, UniProt P36888, D835V)	92%
Discoidin domain-containing receptor 2 (DDR2, Homo sapiens, UniProt Q16832)	92%
Serine/threonine-protein kinase TAO3 (TAOK3, Homo sapiens, UniProt Q9H2K8)	87%
Phosphatidylinositol 4,5-bisphosphate 3-kinase catalytic subunit alpha isoform (PIK3CA, Homo sapiens, UniProt P42336, Q546K)	100%
Ribosomal protein S6 kinase alpha-6, N-terminal kinase domain (RPS6KA6, Homo sapiens, UniProt Q9UK32)	84%
Mitogen-activated protein kinase kinase kinase 2 (MAP3K2, Homo sapiens, UniProt Q9Y2U5)	100%
Tyrosine-protein kinase ABL1, phosphorylated (ABL1, Homo sapiens, UniProt P00519, H396P)	92%

Series 4
Species: mouse
Sample: microsomes or S9
Concentration: 2 µM
Time: 0.5 h
SMILES	remaining compound [%]
COc1cc(=O)n2c(c1C(=O)Nc1ccc3c(c1)OCCO3)CCCC2	50.8
COc1ccc(-n2cc(CO)c3cnc4c(OC)cccc4c32)c(C)c1	27
Clc1ccc(-c2nnc3ccc(Cl)nn23)c(Cl)c1	53.1
CC(=O)N1N=C(c2c(-c3ccccc3)c3cc(Br)ccc3[nH]c2=O)CC1c1ccco1 (centres unmarked)	5.9
Nc1nc2n(c1C(=O)c1ccc3c(c1)CCCC3)CCC2	12.2
CCn1cc(S(=O)(=O)N2CCC3(CCCCO3)CC2)cn1	20.9
OCC1O[C@@H](Oc2cc(O)cc(C3c4c(/C=C/c5ccc(O)cc5)cc(O)cc4OC3c3ccc(O)cc3)c2)C(O)[C@H](O)[C@@H]1O (some centres unmarked)	> 99

A few entries again (series 1):
SMILES	infection rate [%]
CCOC(=O)C1=C(COCCN)NC(C)=C(C(=O)OC)C1c1ccccc1Cl (centres unmarked)	65.6
C[C@@](Cc1ccc(O)c(O)c1)(NN)C(=O)O	68.8
Cn1nnnc1SCC1=C(C(=O)O)N2C(=O)[C@@H](NC(=O)[C@H](OC=O)c3ccccc3)[C@H]2SC1	110
